Results from different studies.
Parts stem from different laboratories: compare values within a part only.

Block 1
Target: Interferon regulatory factor 5, full length, phosphomimetic (IRF5, Homo sapiens, UniProt Q13568-2, residues 1-514, K96S/S451D/S453D/S456D/S462D)
Technique: protein-binding microarray
Molecule type: double-stranded DNA, one strand shown
Sample: in vitro
Tested at: 250 nM
Notes: 60-bp whole probe
With: salmon DNA 0.4 mg/ml
Reference: random background probes
Direction: higher = stronger binding
Constant ends, left off below: GCCTAGCAC … GTCTTGATTCGCTTGACGCTGCTG
Strand	log fluorescence [z-score]
TTAGGACGGCTACTGCTTTAGTGCTAG	-0.449
TTAGGTATCTACTATCGGTTAGTGCTA	7.84
TTAGGTTTCGGGCTCGGTTAGTGCTAG	6.01
GACGGTATCGGTCTCAGGACGTGCTAG	5.24
TATGTTCCCTATTTAAGGCAGTGCTAG	0.399
GACGGTATCGGTATCGGGGCGTGCTAG	6.04
TCAATGATTGGTTGAACACTGTGCTAG	0.0608

Block 2
Target: Sal-like protein 4, full length isoform A (SALL4, Homo sapiens, UniProt Q9UJQ4, residues 1-1053)
Chain of UniProt Q9UJQ4 (whole entry, looked up): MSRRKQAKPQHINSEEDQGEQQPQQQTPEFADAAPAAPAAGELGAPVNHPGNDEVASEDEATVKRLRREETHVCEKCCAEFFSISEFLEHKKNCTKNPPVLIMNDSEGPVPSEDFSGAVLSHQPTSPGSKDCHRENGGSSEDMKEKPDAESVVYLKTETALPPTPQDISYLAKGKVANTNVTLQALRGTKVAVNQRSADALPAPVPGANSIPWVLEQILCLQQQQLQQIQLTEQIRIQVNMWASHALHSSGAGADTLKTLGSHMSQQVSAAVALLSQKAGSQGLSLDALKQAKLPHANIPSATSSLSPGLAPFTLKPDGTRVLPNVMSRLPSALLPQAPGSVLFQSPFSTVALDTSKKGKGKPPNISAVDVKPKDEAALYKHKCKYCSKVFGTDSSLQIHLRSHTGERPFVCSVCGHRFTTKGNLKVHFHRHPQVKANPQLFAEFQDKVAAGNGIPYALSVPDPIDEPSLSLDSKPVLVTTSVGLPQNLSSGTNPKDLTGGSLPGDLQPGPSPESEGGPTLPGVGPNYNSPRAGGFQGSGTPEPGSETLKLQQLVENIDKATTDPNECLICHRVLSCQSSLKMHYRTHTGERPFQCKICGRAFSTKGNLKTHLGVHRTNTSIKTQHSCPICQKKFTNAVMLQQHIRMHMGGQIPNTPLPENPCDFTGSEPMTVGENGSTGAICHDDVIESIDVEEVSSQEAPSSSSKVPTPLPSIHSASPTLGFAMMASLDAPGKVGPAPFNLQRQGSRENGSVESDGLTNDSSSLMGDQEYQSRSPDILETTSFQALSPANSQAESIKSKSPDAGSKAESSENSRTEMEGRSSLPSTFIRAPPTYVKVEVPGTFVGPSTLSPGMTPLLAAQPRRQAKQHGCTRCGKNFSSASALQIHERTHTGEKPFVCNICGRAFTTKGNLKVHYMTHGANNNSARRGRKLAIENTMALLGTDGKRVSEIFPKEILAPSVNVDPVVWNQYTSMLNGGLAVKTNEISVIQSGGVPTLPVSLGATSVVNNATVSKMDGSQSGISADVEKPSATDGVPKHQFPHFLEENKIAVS
Technique: universal PBM
Molecule type: double-stranded DNA, one strand shown
Sample: in vitro
Tested at: 600 nM
Notes: 8-mer, flanks averaged, mean of replicates
Direction: higher = stronger binding
Strand	E-score
CGTCGTAA	-0.00675
ACACAGAG	-0.0659
CTCTGTGA	0.0388
CTTGGAGA	-0.0482
CAACAATG	0.0286

Block 3
Target: Histone acetyltransferase KAT6A, winged helix 1, GST fusion (KAT6A, Homo sapiens, UniProt Q92794, residues 1-85)
Technique: protein binding microarray
Molecule type: double-stranded DNA, one strand shown
Sample: in vitro
Tested at: not given
Notes: 8-mer, flanks averaged, mean of 2 arrays, mostly near background
Reference: not given
Direction: higher = stronger binding
Construct (chain): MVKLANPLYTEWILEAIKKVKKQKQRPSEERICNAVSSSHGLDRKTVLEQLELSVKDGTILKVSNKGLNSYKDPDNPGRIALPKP
Strand	E-score
CAGTTATG	-0.23
CACCGATG	-0.0895
GTGCTAAA	-0.17
CTAGGCTA	0.0929
AACCTCGA	-0.121
CGGGACGC	0.39

Other studies, line by line
Substance	target	assay	test system	setting	scale	quantity	result
PhoQ, residues 284 288 289 292 302 303 TVTVVA	PhoP, residues 12 14 15 18 19 YHFSH (Escherichia coli, UniProt P23836)	Sort-seq, refers to: YFP reporter	E. coli	PhoQ-PhoP variant library, with: 10 µM Mg2+	reference: high Mg2+ state, higher = stronger signaling	fold induction	4.65

Some of these lines once more (block 2):
Strand	E-score
CTTGGAGA	-0.0482
CAACAATG	0.0286
